Assay results pooled from the literature.
A part holds a random share of what one study measured. Substitutions count along the parent as printed.

Sample 1 — effect on: peptide-MHC binding; form: peptide; tested at: concentration not given
Target: HLA class I histocompatibility antigen, A alpha chain, allele A*25:01 (Homo sapiens, UniProt P04439)
| Sequence | binding |
| --- | --- |
| YLAKLFLDH | inactive |
| LEEDIQHFL | inactive |
| TVFRNQNRV | inactive |
| STTTCEAGV | inactive |
| GHMMVIFRL | inactive |
| LMTHTWHAK | inactive |

Sample 2 — target: ATF2, bZIP domain (human); method: DHFR protein complementation; sample: yeast; reference: wild-type JUN-FOS pair; reading: higher = stronger binding
Notes: single substitutions, most at no-binding floor
Starting sequence: JUN, bZIP domain (human); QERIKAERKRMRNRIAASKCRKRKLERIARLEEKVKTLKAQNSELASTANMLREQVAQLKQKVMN; partner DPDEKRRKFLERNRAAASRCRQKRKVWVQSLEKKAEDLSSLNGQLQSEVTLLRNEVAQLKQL
| Variant | binding fitness |
| --- | --- |
| T48S | -1.33 natural log |
| E32A | -1.27 natural log |
| L45N | -1.53 natural log |
| K36F | -1.32 natural log |
| R53W | -1.52 natural log |
| L45D | -1.52 natural log |
| R30K | -1.48 natural log |
| K34S | -1.39 natural log |

Sample 3 — method: protein binding microarray; form: double-stranded DNA, one strand shown; sample: in vitro; tested at: not given; reference: not given; reading: higher = stronger binding
Target: Histone acetyltransferase KAT6A, both winged helices, GST fusion (KAT6A, Homo sapiens, UniProt Q92794, residues 1-181)
Notes: 8-mer, flanks averaged, mean of 2 arrays, mostly near background
Construct (chain): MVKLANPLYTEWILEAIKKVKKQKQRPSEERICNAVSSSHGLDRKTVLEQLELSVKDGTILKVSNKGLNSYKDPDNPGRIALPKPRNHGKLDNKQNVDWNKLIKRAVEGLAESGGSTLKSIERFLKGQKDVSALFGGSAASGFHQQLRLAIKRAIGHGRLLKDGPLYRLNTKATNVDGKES
| Strand | E-score |
| --- | --- |
| ACGCTCCC | 0.0902 |
| AAGGCTCG | -0.101 |
| CTCTAGGC | 0.0307 |
| AATGCGCT | 0.191 |
| ACTATGAA | -0.0662 |
| CTTTTTCC | 0.0418 |
| CCGTAGGA | 0.107 |
| AAATGTAC | -0.168 |

Sample 4 — target: CCNB1, cyclin fold, Cln2 fusion (human); method: yeast growth competition, sequencing; sample: yeast; notes: strong parent motif; reference: not given; reading: higher = stronger binding
Starting sequence: viral docking peptide; TSVRRALFTGGSD; partner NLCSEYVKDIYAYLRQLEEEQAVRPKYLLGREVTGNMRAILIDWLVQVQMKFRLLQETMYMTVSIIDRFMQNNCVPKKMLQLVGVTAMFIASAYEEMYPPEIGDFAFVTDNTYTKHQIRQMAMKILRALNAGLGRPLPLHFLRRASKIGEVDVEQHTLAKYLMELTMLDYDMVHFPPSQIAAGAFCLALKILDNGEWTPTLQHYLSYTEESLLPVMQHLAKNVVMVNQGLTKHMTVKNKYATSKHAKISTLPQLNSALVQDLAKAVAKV
| Variant | normalised enrichment score |
| --- | --- |
| TSVRRILFTGGSD [A6I] | 1.28 |
| TSVPRALFTGGSD [R4P] | 0.373 |
| TSVRRALATGGSD [F8A] | 0.0961 |
| TPVRRALFTGGSD [S2P] | 1.83 |
| TSVRGALFTGGSD [R5G] | 0.26 |
| TSVRRALFTGGTD [S12T] | 1.99 |
| TSVRRAMFTGGSD [L7M] | 0.403 |
| TSVRRALGTGGSD [F8G] | 0.148 |
| TSVGRALFTGGSD [R4G] | -0.43 |
| TSVRRALKTGGSD [F8K] | 0.00261 |
| TSVRRALFRGGSD [T9R] | 1.12 |
| TSVRLALFTGGSD [R5L] | 0.24 |
| TSVRRALFTLGSD [G10L] | 1.28 |
| TSVRRALFTGGRD [S12R] | 1.45 |
| TSVQRALFTGGSD [R4Q] | 1.29 |
| TSVRRALFVGGSD [T9V] | 2.5 |
| TSVRRALFTGGSA [D13A] | 1.88 |
| TSVRRALQTGGSD [F8Q] | 0.41 |
| TSVRKALLTGGSD [R5K F8L] | 0.542 |
| TSVWRALFTGGSD [R4W] | 0.0527 |
| TSVRRALFTGRSD [G11R] | 0.906 |
| TSVRRWLFTGGSD [A6W] | -0.102 |
| TCVRRALFTGGSD [S2C] | 2.05 |
| TSVRRARFTGGSD [L7R] | 0.418 |
| TSVRRALLTGGSD [F8L] | 0.223 |

Sample 5 — cell line: HEK-293T; effect on: pseudovirus infection; method: FDA-approved drug library counter-screen; organism: VSV pseudotyped with VSV-G; tested at: 10 µM; time: 16 h; reference: vehicle-treated
| SMILES | GFP-positive cells [%] |
| --- | --- |
| CO/N=C(\C(=O)N[C@@H]1C(=O)N2C(C(=O)OCOC(=O)C(C)(C)C)=C(/C=C\c3scnc3C)CS[C@H]12)c1csc(N)n1 | 96.3 |
| Cc1cn([C@H]2C[C@H](N=[N+]=[N-])[C@@H](CO)O2)c(=O)[nH]c1=O | 96.9 |
| CC(C)(C#N)c1cc(Cn2cncn2)cc(C(C)(C)C#N)c1 | 109 |

Sample 6 — Variant: H34Q; method: DHFR PCA, deep sequencing; sample: yeast; reference: wild-type fitted maximum; reading: higher = stronger binding
Target: ABI1, truncated, D143A, DHFR fusion (Arabidopsis thaliana)
Notes: methotrexate growth selection, single substitutions
Starting sequence: PYL1, truncated, DHFR fusion (Arabidopsis thaliana); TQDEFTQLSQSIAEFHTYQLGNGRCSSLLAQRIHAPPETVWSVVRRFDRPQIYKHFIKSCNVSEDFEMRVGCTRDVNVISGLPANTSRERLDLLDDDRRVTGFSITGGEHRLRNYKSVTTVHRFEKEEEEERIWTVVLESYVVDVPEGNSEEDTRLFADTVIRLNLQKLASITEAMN
| conditions | relative binding score [%] |
| --- | --- |
| added: (+)-ABA 1.4 µM | 41.4 |
| added: (+)-ABA 2500 µM | 91.3 |
| added: (+)-ABA 17 µM | 79.3 |
| added: (+)-ABA 710 µM | 93.3 |
| added: (+)-ABA 4.8 µM | 72.9 |
| added: (+)-ABA 0 µM | 37 |

Repeated from above (sample 2):
| Variant | binding fitness |
| --- | --- |
| L45D | -1.52 natural log |
| R30K | -1.48 natural log |
| R53W | -1.52 natural log |
| K34S | -1.39 natural log |
| K36F | -1.32 natural log |
| T48S | -1.33 natural log |
